Experimental data pooled from the literature.
A part holds a random share of what one study measured.
UniProt O23661, sequence (whole entry, looked up): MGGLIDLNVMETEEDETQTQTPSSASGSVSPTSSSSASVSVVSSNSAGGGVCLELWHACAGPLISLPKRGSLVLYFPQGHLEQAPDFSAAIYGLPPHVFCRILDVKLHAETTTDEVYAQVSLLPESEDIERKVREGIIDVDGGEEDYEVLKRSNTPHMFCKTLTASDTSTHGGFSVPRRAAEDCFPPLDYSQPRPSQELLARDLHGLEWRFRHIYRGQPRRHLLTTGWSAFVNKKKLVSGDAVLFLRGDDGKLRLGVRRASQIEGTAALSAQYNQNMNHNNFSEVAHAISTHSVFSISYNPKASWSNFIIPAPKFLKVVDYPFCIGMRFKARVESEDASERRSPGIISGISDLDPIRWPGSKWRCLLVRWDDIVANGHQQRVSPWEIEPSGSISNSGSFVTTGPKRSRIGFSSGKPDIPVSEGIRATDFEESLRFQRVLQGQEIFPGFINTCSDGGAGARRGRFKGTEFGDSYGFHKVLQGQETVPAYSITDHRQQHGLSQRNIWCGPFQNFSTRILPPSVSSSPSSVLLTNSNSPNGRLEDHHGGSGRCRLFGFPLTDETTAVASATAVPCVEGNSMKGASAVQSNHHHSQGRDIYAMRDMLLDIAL
UniProt Q8RYC8, sequence (whole entry, looked up): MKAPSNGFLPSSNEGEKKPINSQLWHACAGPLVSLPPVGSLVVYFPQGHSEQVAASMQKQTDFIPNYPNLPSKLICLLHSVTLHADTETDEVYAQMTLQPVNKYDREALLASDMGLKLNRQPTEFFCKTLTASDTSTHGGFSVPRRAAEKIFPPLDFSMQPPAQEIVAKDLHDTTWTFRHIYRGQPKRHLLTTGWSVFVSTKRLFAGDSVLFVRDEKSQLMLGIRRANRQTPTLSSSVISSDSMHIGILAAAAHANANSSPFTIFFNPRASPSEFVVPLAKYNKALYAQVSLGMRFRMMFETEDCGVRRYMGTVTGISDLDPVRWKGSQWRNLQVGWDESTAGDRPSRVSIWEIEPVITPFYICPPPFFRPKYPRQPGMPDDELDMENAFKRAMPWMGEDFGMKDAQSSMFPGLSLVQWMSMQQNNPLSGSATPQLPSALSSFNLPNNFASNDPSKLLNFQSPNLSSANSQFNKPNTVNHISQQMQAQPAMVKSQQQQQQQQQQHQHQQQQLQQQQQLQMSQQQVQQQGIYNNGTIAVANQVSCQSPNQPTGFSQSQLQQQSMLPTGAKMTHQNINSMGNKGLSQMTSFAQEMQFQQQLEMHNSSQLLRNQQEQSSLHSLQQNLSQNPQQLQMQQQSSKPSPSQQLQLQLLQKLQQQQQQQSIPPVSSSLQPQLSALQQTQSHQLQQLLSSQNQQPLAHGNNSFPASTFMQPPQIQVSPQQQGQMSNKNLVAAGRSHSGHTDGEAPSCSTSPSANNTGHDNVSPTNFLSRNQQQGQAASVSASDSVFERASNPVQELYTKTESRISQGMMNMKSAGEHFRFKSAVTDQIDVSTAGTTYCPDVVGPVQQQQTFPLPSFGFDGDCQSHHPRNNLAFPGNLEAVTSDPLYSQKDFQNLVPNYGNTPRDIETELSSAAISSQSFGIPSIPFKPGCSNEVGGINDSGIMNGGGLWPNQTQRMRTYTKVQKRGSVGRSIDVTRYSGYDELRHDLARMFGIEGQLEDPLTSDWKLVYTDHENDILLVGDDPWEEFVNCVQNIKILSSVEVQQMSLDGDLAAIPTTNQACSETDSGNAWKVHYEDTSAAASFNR
UniProt Q9C5X0, sequence (whole entry, looked up): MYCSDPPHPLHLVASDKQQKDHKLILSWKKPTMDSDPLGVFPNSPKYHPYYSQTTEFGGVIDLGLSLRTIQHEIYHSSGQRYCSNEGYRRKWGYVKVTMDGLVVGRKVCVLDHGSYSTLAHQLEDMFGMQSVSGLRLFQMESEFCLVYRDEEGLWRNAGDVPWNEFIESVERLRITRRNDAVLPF

Block 1 — effect on: enzyme activity; mode: inhibitor; tested at: 0.5 µM; baseline: control; endpoint: remaining activity
Target: Ephrin type-A receptor 2 (EPHA2, Homo sapiens, UniProt P29317)
UniProt P29317, sequence (whole entry, looked up): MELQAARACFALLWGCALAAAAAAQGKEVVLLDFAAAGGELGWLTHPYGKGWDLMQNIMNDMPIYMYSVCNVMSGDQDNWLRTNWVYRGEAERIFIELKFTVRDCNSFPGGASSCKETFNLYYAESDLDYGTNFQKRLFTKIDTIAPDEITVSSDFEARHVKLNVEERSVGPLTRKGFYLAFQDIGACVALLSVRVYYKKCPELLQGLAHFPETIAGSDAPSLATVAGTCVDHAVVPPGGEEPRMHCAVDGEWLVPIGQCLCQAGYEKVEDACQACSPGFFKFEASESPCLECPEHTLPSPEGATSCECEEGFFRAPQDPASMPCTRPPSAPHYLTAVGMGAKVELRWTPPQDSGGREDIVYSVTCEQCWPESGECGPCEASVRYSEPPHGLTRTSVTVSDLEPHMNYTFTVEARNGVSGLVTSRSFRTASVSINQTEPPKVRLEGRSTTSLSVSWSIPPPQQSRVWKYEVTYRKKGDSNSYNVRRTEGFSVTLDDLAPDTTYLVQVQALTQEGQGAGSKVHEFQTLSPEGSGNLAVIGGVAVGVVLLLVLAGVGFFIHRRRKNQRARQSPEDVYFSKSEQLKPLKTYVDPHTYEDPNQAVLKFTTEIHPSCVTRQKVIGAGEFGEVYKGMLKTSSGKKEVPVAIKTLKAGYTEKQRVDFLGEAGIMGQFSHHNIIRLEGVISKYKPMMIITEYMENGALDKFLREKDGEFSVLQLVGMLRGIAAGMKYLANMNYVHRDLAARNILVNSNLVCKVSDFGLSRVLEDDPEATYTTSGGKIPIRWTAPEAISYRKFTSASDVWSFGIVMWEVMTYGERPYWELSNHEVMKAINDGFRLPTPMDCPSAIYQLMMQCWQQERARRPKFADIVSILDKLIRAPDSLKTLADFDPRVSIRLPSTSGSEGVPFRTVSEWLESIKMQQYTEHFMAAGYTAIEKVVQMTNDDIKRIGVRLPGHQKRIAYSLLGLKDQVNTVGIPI
CO[C@H]1C[C@@H]2CC[C@@H](C)[C@@](O)(O2)C(=O)C(=O)N2CCCC[C@H]2C(=O)O[C@H]([C@H](C)C[C@@H]2CC[C@@H](O)[C@H](OC)C2)CC(=O)[C@H](C)/C=C(\C)[C@@H](O)[C@@H](OC)C(=O)[C@H](C)C[C@H](C)/C=C/C=C/C=C/1C: 107%
Nc1[nH]nc2nc3ccccc3nc12: 98.5%
CCOC(=O)c1c(C)[nH]c(/C=C2\C(=O)Nc3ccccc32)c1C: 105%
Nc1ncnc2n[nH]c(Nc3ccc(F)cc3)c12: 89.9%
CNC(=O)c1cc(Oc2ccc(NC(=O)Nc3ccc(Cl)c(C(F)(F)F)c3)cc2)ccn1: 83.8%
NCCNc1ncc(C(N)=O)c(Nc2cccc(C(F)(F)F)c2)n1: 99.5%
O=C(O)c1ccc2c3c1cccc3c(=O)n1c3ccccc3nc21: 102%
O=c1c2ccccc2[nH]c(=S)n1CCN1CCC(=C(c2ccc(F)cc2)c2ccc(F)cc2)CC1: 105%
COc1cc2ncnc(Nc3ccc(Oc4ccccc4)cc3)c2cc1OC: 106%
Cc1ccc(Nc2nccc(N(C)c3ccc4c(C)n(C)nc4c3)n2)cc1S(N)(=O)=O: 85.7%
O=C(Nc1cccc(Nc2cc(Nc3cccc(C(F)(F)F)c3)ncn2)c1)C1CC1: 104%
O=C1NC(=O)C(c2cn(CCCO)c3ncccc23)=C1c1cnccn1: 105%
COc1ccc(OC)c2c(=S)c3ccccc3[nH]c12: 100%
Oc1ccc(-c2nc(-c3ccncc3)c(-c3ccc(F)cc3)[nH]2)cc1: 91.3%
O=S(=O)(c1cccc2cnccc12)N1CCCNCC1: 102%

Block 2 — effect on: binding; method: radioligand binding; tested at: 10 µM; endpoint: inhibition
Target: Histamine H2 receptor (HRH2, Homo sapiens, UniProt P25021)
UniProt P25021, sequence (whole entry, looked up): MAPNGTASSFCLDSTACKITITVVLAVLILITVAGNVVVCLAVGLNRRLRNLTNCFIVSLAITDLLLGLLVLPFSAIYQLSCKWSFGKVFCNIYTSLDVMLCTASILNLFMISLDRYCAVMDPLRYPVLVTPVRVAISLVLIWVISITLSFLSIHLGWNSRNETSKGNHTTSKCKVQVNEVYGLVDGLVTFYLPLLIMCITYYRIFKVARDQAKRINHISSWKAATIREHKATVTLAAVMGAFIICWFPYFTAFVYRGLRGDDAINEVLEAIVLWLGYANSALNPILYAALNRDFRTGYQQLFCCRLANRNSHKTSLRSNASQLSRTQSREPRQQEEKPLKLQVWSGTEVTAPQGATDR
O=C(Nc1cccnn1)N1CC(CC=Cc2cncc(Oc3ccc(C(F)(F)F)cn3)n2)C1: -3.96%
CC(=O)Nc1nc(CN2CCC[C@H](Cc3cc(C)nc(C)c3)C2)cs1: -13.2%
O=C1CCc2cc(Nc3cc(OC4CCOCC4)c([N+](=O)[O-])cc3Cl)ccc2N1: 20.6%
CN1CCN(C(=O)C(C)(C)c2ccc(C(=O)Nc3cn4cc(-c5ccncc5)ccc4n3)cc2)CC1: 19.4%
C[C@H](NC(=O)c1cnc2n1[C@](C)(Cc1ccc(C#N)cc1)C(=O)N2c1cc(Cl)c(F)c(Cl)c1)C(=O)NC1(c2ccccn2)CC1: 11.8%
C[C@@]1(Cc2ccc(C#N)cc2)C(=O)N(c2cc(Cl)cc(Cl)c2)c2ncc(C(=O)NC3(c4nc(C5CCC5)no4)CC3)n21: 11%
Cc1nccc(COC(=O)N2C[C@@H]3[C@@H](CNC(=O)c4ccc5[nH]nnc5c4)[C@@H]3C2)n1: -0.15%

Block 3 — method: protein binding microarray; molecule type: double-stranded DNA, one strand shown; medium: in vitro; tested at: not given; baseline: not given; direction: higher = stronger binding; endpoint: E-score
Target: Histone acetyltransferase KAT6A, winged helix 2, GST fusion (KAT6A, Homo sapiens, UniProt Q92794, residues 85-181)
Notes: 8-mer, flanks averaged, mean of 2 arrays, mostly near background
Target sequence (chain): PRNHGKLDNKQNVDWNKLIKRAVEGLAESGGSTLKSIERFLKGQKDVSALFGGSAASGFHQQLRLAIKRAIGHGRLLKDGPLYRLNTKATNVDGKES
CGTGAAGC: -0.102
CATATTGC: -0.211
AGACGGTG: -0.299
TACAATAA: -0.0862
CGTTATGA: -0.134
CAGTTGGA: -0.0426
TACAGAGA: -0.044
ATCTTTCC: -0.072

Block 4 — Molecule: B1 (IAA31); method: two-hybrid; direction: higher = firmer interaction; endpoint: positive tests
B1: IAA31 (Arabidopsis thaliana, UniProt Q8H174); chain MEVSNSCSSFSSSSVDSTKPSPSESSVNLSLSLTFPSTSPQREARQDWPPIKSRLRDTLKGRRLLRRGDDTSLFVKVYMEGVPIGRKLDLCVFSGYESLLENLSHMFDTSIICGNRDRKHHVLTYEDKDGDWMMVGDIPWDMFLETVRRLKITRPERY
ARF19 948-1086 (Arabidopsis thaliana, UniProt Q8RYC8); baseline: out of 2 tests: 1
IAA34 (Arabidopsis thaliana, UniProt Q9C5X0); baseline: out of 4 tests: 4
ETT (Arabidopsis thaliana, UniProt O23661); baseline: out of 2 tests: 0

Excerpt of the above (block 1):
CCOC(=O)c1c(C)[nH]c(/C=C2\C(=O)Nc3ccccc32)c1C: 105%
Nc1ncnc2n[nH]c(Nc3ccc(F)cc3)c12: 89.9%
CNC(=O)c1cc(Oc2ccc(NC(=O)Nc3ccc(Cl)c(C(F)(F)F)c3)cc2)ccn1: 83.8%
NCCNc1ncc(C(N)=O)c(Nc2cccc(C(F)(F)F)c2)n1: 99.5%
